Assay results gathered from unrelated publications.
Numbered parts are unrelated; each lists some results of a single study. Several values in a cell are separate wells, animals, samples, runs or records. Positions count from the first letter of the parent shown.
Sequence of UniProt Q6ZN16 (whole entry, looked up): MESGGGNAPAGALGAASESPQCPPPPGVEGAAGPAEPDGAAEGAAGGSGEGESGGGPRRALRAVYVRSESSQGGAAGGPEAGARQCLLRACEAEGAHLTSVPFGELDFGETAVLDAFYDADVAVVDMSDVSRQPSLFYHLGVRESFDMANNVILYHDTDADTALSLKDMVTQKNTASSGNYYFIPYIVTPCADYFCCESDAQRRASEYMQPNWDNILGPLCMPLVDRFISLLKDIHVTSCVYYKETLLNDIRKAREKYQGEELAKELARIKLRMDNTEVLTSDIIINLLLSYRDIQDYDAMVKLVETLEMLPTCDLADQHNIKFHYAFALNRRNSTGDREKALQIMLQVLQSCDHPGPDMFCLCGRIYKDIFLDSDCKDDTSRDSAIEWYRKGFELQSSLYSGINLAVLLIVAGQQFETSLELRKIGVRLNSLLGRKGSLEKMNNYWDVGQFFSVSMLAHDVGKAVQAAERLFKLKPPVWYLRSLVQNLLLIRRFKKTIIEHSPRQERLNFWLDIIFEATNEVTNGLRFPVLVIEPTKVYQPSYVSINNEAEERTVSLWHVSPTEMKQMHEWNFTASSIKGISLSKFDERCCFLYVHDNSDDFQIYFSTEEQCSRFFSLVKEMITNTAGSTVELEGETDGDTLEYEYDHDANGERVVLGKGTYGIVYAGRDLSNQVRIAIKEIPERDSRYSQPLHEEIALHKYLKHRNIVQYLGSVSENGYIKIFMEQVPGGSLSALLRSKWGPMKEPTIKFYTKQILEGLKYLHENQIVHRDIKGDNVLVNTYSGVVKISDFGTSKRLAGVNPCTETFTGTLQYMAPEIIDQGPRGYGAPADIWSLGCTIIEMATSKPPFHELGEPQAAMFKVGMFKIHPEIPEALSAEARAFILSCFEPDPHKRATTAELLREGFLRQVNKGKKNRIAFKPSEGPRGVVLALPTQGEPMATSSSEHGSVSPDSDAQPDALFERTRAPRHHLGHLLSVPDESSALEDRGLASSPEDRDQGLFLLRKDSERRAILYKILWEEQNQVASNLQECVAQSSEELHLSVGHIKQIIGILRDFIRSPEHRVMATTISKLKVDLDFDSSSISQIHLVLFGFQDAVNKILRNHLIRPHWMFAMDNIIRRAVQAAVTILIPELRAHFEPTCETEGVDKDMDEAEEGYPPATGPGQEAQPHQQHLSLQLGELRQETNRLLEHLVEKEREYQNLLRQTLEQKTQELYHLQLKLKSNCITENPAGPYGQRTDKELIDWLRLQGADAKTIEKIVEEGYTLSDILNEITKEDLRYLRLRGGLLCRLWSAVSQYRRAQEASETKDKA
Sequence of UniProt P51812 (whole entry, looked up): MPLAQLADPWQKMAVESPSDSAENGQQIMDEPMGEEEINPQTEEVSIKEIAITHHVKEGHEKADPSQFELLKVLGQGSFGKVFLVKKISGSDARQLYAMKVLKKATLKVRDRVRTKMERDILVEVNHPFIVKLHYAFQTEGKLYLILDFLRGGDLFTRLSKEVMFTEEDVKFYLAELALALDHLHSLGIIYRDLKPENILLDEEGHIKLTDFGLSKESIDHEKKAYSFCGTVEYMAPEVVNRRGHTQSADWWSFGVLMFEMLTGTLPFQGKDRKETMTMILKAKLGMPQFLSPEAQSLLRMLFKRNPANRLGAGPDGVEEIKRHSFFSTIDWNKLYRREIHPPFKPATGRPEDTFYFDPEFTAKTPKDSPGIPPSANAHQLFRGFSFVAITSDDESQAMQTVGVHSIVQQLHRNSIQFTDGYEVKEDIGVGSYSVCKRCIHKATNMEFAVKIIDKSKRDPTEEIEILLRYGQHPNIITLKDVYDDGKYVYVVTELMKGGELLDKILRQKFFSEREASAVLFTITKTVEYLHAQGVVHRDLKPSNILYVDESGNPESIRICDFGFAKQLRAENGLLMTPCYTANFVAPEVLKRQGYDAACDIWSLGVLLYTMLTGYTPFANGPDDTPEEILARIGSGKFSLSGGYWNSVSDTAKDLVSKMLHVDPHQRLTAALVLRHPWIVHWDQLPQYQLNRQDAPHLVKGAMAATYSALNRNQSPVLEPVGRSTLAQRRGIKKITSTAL
Sequence of UniProt P08631 (whole entry, looked up): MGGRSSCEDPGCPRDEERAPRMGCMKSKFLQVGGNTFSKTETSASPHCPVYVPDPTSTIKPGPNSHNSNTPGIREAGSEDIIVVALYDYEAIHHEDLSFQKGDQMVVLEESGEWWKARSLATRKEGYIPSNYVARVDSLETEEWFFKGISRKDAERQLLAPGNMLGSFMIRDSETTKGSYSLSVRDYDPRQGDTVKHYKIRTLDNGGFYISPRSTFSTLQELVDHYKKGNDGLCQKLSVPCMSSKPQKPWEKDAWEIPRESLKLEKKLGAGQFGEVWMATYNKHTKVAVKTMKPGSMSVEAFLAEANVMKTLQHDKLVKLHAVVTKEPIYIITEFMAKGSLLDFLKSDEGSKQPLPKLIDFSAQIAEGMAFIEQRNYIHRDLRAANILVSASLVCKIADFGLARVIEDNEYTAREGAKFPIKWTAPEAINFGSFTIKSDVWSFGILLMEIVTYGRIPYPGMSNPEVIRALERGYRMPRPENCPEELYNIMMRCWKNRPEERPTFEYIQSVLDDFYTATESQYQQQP
Sequence of UniProt Q99759 (whole entry, looked up): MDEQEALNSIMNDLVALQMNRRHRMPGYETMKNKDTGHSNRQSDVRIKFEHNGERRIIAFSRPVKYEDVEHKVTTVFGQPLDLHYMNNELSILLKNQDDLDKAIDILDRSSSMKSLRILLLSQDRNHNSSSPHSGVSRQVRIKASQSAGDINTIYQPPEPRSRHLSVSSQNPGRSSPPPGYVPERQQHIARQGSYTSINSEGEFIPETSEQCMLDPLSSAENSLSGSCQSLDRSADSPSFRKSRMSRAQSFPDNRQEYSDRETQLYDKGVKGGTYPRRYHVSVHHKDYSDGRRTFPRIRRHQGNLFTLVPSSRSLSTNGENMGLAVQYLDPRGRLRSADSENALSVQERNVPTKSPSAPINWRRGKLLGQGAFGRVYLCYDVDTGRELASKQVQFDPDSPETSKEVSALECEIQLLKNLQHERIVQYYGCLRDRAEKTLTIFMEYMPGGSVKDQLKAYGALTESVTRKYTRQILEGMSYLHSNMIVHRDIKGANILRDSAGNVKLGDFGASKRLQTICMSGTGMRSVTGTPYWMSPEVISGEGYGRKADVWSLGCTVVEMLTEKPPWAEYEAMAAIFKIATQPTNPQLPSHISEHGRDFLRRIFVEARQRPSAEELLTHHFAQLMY
Sequence of UniProt Q6PHR2 (whole entry, looked up): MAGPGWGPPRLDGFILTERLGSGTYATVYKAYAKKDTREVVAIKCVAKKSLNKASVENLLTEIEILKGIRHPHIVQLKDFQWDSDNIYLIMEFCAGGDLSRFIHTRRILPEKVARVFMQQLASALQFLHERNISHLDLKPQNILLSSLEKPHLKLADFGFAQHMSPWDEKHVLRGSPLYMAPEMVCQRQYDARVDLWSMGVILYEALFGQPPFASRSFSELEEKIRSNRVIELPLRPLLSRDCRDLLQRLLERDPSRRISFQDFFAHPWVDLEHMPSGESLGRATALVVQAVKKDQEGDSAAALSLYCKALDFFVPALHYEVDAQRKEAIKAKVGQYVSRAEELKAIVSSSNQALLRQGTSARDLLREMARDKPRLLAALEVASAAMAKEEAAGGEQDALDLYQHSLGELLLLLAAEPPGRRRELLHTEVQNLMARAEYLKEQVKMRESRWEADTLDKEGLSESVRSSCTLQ

Study 1 — organism: Cryptosporidium parvum; method: time-kill; cell line: HCT-8; strain: nanoluciferase-expressing; relative to: DMSO control; quantity: luminescence remaining
Structure (SMILES): CNC(=O)c1ccc(-c2cnn3ccc(C(=O)N(C)c4ccc(Cl)c(C(=O)OC)c4)cc23)cc1
0.00305 µM, 24 h: 112% and 88.1%
0.7407 µM, 48 h: 11.2% and 10.4%
0.00914 µM, 24 h: 33.1% and 40.2%

Study 2 — effect on: cell-free assay; method: competition with immobilised ligand; tested at: 1 µM; quantity: remaining binding
SMILES: Cn1cncc1[C@](O)(COc1ccc(C#N)cc1-c1ccc(OC(F)(F)F)cc1)c1ccc(C#N)cc1
HCK (Homo sapiens, UniProt P08631): 100%
STK26 (Homo sapiens, UniProt Q9P289): 100%
PIM3 (Homo sapiens, UniProt Q86V86): 89%
MAP3K3 (Homo sapiens, UniProt Q99759): 100%
MAP3K1 (Homo sapiens, UniProt Q13233): 90%
COQ8B (Homo sapiens, UniProt Q96D53): 72%
PRKX (Homo sapiens, UniProt P51817): 87%
CAMK1 (Homo sapiens, UniProt Q14012): 99%
EPHB2 (Homo sapiens, UniProt P29323): 94%
CAMK2B (Homo sapiens, UniProt Q13554): 85%
MAP3K15 (Homo sapiens, UniProt Q6ZN16): 90%
CLK2 (Homo sapiens, UniProt P49760): 87%
BMPR2 (Homo sapiens, UniProt Q13873): 89%
GAK (Homo sapiens, UniProt O14976): 97%
MAPK7 (Homo sapiens, UniProt Q13164): 93%
IKBKE (Homo sapiens, UniProt Q14164): 100%
ULK3 (Homo sapiens, UniProt Q6PHR2): 88%
Ribosomal protein S6 kinase alpha-3, C-terminal kinase domain (RPS6KA3, Homo sapiens, UniProt P51812): 87%

Study 3 — target: inorganic phosphate, free oxyanion; method: microfluidic competitive inhibition; sample: in vitro, cell-free expressed; tested at: not given; direction: lower = stronger binding; quantity: phosphate dissociation constant
Setting: derived from inhibition constants, unchanged parent 615000 nM
Parent: PafA, mature enzyme, eGFP fusion (Elizabethkingia meningoseptica, UniProt Q9KJX5); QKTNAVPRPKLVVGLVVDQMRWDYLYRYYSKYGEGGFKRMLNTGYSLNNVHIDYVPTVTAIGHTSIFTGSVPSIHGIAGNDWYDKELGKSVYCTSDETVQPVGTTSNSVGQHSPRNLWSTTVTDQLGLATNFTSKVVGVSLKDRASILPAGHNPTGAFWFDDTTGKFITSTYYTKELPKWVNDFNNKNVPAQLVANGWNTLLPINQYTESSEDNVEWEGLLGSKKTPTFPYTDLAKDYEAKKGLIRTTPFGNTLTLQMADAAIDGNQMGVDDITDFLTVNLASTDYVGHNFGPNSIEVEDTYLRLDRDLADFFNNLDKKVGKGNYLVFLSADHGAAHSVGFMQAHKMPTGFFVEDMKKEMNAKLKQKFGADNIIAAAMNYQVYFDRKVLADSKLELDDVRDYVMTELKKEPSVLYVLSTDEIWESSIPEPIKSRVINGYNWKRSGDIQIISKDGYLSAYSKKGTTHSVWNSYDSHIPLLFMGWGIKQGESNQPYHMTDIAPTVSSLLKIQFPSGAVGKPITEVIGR
S330G: 765 µM
K508V: 421 µM
E218V: 215 µM
Q366V: 627 µM
A310V: 666 µM
I476V: 522 µM
A331G: 407 µM
T104G: 630 µM

Study 4 — effect on: binding; method: phage display NGS; molecule type: peptide; tested at: concentration not given; relative to: input library; quantity: enrichment fold change
Target: UDP-N-acetylglucosamine--peptide N-acetylglucosaminyltransferase 110 kDa subunit (OGT, Homo sapiens, UniProt O15294)
Sequence of UniProt O15294 (whole entry, looked up): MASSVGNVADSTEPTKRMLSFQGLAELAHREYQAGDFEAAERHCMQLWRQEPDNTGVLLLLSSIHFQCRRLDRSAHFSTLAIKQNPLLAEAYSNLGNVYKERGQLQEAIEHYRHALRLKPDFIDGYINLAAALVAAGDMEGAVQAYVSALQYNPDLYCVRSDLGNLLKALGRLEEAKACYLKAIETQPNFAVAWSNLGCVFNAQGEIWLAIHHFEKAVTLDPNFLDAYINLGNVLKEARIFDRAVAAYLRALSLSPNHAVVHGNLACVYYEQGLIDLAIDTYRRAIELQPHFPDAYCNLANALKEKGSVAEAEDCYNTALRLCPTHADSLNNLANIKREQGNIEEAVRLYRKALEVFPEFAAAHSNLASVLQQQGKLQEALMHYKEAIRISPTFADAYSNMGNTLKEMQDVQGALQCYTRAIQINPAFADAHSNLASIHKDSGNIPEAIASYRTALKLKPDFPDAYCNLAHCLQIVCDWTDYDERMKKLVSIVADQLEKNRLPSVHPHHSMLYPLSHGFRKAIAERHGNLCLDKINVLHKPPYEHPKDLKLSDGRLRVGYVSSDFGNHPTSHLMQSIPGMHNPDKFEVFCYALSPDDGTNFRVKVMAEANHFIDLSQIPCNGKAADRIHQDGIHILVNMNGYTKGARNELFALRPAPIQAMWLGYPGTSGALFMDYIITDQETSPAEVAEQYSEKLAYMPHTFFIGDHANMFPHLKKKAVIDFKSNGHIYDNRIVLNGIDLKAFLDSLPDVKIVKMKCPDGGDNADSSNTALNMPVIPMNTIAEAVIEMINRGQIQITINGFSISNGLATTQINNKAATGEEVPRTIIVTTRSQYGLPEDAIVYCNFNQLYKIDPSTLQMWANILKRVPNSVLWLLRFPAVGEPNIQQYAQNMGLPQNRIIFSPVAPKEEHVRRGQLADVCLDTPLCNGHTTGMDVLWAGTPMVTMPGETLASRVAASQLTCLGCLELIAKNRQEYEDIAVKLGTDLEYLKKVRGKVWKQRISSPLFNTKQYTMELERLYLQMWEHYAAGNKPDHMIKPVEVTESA
YTPIQHHISHTHHAE: 5.79
THIMTGHHGPIKGRD: 3.77
HINHHHQSITIPWWN: 58.6
GRYSYDPQYTIDYKR: 2.71
RPITSAYQPSYQIVL: 2.08
FVNTWHYPKTANYHA: 3.25
SLSHHHIQEHGAYQH: 5.84
HLKHHYLAFTTHHPG: 8.01

Mixed results
CN1CCN(C(=O)Cc2ccc(Br)cc2)CC1
remaining compound (mouse, microsomes or S9; 2 µM, 0.5 h): 6.05%

O=C1CCC(N2Cc3c(ccc4c3OCC43CCN(Cc4ccccc4)CC3)C2=O)C(=O)N1 (centres unmarked)
plasma concentration (Sprague Dawley rat, male, plasma; intravenous, 1 mg/kg, 8 h): 15.4 ng/mL and 15.2 ng/mL

COc1cc(C2NCc3ccccc3-n3cccc32)ccc1O (centres unmarked)
remaining compound (mouse, microsomes or S9; 2 µM, 0.5 h): 23.3%

C=CC[C@]1(O)CC[C@H]2[C@@H]3CCC4=CCCC[C@@H]4[C@H]3CC[C@@]21C
viability (A-375; 100 µM, 36 h): 1.54%
